Published values from different studies.

SMILES = CCN1CCN(Cc2ccc(Nc3ncc(F)c(-c4cc(F)c5nc6n(c5c4)[C@H](C)CCC6)n3)nc2)CC1; test = RECIST v1.1; test system = advanced solid tumour patients; conditions = 400 mg, Phase Ia monotherapy; disease control rate = 100%
SMILES = CC1(C)CCC2(CC1)N[C@@H](C(=O)N[C@@H]1CC[C@@H](C(N)=O)OC1)[C@H](c1ccnc(Cl)c1F)[C@]21C(=O)Nc2cc(Cl)ccc21; test = RECIST; test system = patients with solid tumours; conditions = dose not given; scale = relative to: patients; disease control rate = 43.8%
SMILES = Cc1ccc(NC(=O)c2ccnc(C(F)(F)F)c2)cc1-c1cc(OCCO)nc(N2CCOCC2)c1; test system = MAPK-altered advanced solid tumour patients; conditions = dose not given, single-agent dose escalation; disease control rate = 36.8%
SMILES = CO[C@H]1C[C@@H]2CC[C@@H](C)[C@@](O)(O2)C(=O)C(=O)N2CCCC[C@H]2C(=O)O[C@H]([C@H](C)C[C@@H]2CC[C@@H](OC(=O)NCCOCCOCCOCCOCCOCCOCCOCCOCCC(=O)N3CCc4cc(Cn5nc(-c6ccc7oc(N)nc7c6)c6c(N)ncnc65)ccc4C3)[C@H](OC)C2)C[C@@H](O)[C@H](C)/C=C(\C)[C@@H](O)[C@@H](OC)C(=O)[C@H](C)C[C@H](C)/C=C/C=C/C=C/1C; test = RECIST v1.1; test system = patients with advanced solid tumours; conditions = 6 mg or higher; disease control rate = 64%
SMILES = COc1ccc([C@@H](O)c2cc(-c3ncnc4cc(N5CCOCC5)ccc34)c(F)cc2Cl)nn1; test = RECIST version 1.1; test system = patients, advanced solid tumours; conditions = 300 mg twice daily, together with: avelumab; scale = relative to: patients; disease control rate = 0%
SMILES = COc1cc2cc(-c3ccc(CC(=O)Nc4cc(C(C)(C)C(F)(F)F)no4)cn3)cnc2cc1OC; test = RECIST v1.1; test system = RET-altered advanced solid tumour patients; conditions = oral, 20 mg once daily, phase I; disease control rate = 0%
SMILES = COc1nnc2ccc(N3CCC(c4ccc(OCCN5CCN(C)C(=O)[C@H]5C)cc4)CC3)nn12; test system = relapsed/refractory solid tumour or lymphoma patients; conditions = dose not given, 6 weeks; disease control rate = 48.5%
SMILES = CN[C@@H](C)C(=O)N[C@H]1CN(S(=O)(=O)c2cccc(S(=O)(=O)N3CC[C@H]4CC[C@@H](C(=O)NC(c5ccccc5)c5ccccc5)N4C(=O)[C@@H](NC(=O)[C@H](C)NC)C3)c2)CC[C@H]2CC[C@@H](C(=O)NC(c3ccccc3)c3ccccc3)N2C1=O; test = RECIST 1.1; test system = advanced pancreatic cancer patients; conditions = dose not given, prior therapy, together with: AG; disease control rate = 50%
SMILES = Cc1cc(C)c(CNC(=O)c2cc(Cl)c3c(c2C)O[C@@](C)([C@H]2CC[C@H](N(C)C)CC2)O3)c(=O)[nH]1; test = IWG criteria, CR or PR or SD; test system = relapsed/refractory PTCL patients; conditions = dose not given; disease control rate = 62%

Excerpt of the above:
SMILES = CC1(C)CCC2(CC1)N[C@@H](C(=O)N[C@@H]1CC[C@@H](C(N)=O)OC1)[C@H](c1ccnc(Cl)c1F)[C@]21C(=O)Nc2cc(Cl)ccc21; test = RECIST; test system = patients with solid tumours; conditions = dose not given; scale = relative to: patients; disease control rate = 43.8%
